Results of several laboratories.
Each numbered part is a random draw from the data of one study; scales do not carry over between parts. Substitutions count along the parent as printed.

Series 1 — technique: RNA Bind-n-Seq; form: RNA; matrix: in vitro; tested at: not given; baseline: input RNA pool; reading: higher = stronger binding
Target: RING finger protein unkempt homolog, zinc fingers 1-6, GST-SBP tag (UNK, Homo sapiens, UniProt Q9C0B0, residues 30-357)
Chain of UniProt Q9C0B0 (30-357, looked up): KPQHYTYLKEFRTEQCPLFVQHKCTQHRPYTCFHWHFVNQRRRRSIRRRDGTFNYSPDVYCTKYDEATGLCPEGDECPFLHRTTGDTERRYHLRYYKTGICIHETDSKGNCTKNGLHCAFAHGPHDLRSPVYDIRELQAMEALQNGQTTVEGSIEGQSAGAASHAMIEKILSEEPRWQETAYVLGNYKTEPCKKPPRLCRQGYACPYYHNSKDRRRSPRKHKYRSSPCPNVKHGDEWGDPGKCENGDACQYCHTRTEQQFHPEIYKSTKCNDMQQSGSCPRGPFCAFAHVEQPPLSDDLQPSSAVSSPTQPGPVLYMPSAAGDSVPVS
Notes: RNA with constant flanks, human-mouse chimeric sites, ends assumed
Constant ends, left off below: GGGAGUUCUACAGUCCGACGAUC … CAACAGAGGAUUGAGCAUCA
Sequence	bound/input enrichment [ratio]
CGGAGCCCUCCUCUCCCACAGGCCCAAGAUAUAACCCACCAGUGCCUUUUGUCUUCCUGUCAGCUCUGUCAAUCACGGCCCUGCCUUCACGCCCACACCAAGUGCCCCCACCCCUAAGGG	0.477
CUGUGUGUGCUGAAUAAUGAUUUGUGAAGAACUGUCCUCCAAGCUGUAACCCAUGCUGUUAUUAUAGUUGCUGCAAAAUGUUCUUCCUGAUAUUGAUUUUAUUUGUUAACUGAAGGUCUC	0.399
UGUGCCCCACAAGAUCCUACCUGAGUGGCAGCUGAAGCACUUUUCUUCUCCUUGCCUGAACCCCCCCCCACUGCCCCCCCAUCCCCCAGUGUCGGCUGAGAUGUUGCCUCUGCACGGUUC	1.32
GUGCCCUCCUUCUCGCUGCGGAGCCCGAGCUGGGAACCAUUCCGGGACUGGUACCCUGCACACAGCCGCCUCUUCGAUCAAGCUUUCGGGGUGCCCCGGUUGCCCGAGGAGUGGUCGCAG	0.0624
GUGCCCUUCUCGCUGCUGCGGAGCCCGCCCAGCUGGGCAUUCCGGGACUGGUACCCUGCACACAGCCGCCUCUUCGAUCAAGCUUUCGGGGUGCCCCGGUUGCCCGAGGAGUGGUCGCAG	0.065
AAAGAUCUACUGAGGCAAGGCAGCAAAUUUAGGAGAGACAUUUCAACAAUAUUGAUAGAGUUAGGAUUCCAAAUUAAAAAGAAAACUAAGACAUUAUAUAUCAACAAAGCCAAUGUGUGG	8.22
GUAUACGGUUAUCGAGGAAAGGACUGUAGAGCGAAUGUAUACCUGCUUCCGACCGGGGAGAUAGUUUAUUUCAUUGCCUCAGUGGUAGUCCUGUUUAAUUAUGAGGAGAGGACUCAGCGA	1.46
AAAGAACCUCUCUCUGAAGAAGAGGAAGAAGACAAUGAUGAUGUUGAACCCAUUUCUGAAUUUCGAUUUGUGCCCAGUGAUAAGUCAGCGUUGGAGGCGAUGUUCACAGCAAUGUGUGAG	0.243
CACACACUCUUCUGUGGGACCCUCAUCUUGCAGGCCCGGGCCUAUGUGGGACCCCGUGUCCUGGCAGUGGUGACCCGCACAGGGUUCUGCACGGCAAAAGGGGGCCUGGUGAGCUCCAUC	0.0631
UACAUCACCAAUGUCCUACAAAAUCCUGACUUGGCUCUGAGAAUGGCUGUGCGGAACAACUUAGCUGGUGCUGAAGAACUCUUUGCCCGGAAAUUUAAUGCUCUUUUCGCCCAGGGAAAC	0.2
GCCACCAGAUCCCAGAAACAUGACCCUUGCAGCCUAUAAAGAGAAGAUGAAGGAGCUCCCACUAGUGUCCUUGUUCUGCUCCUGCUUCCUGGCCGAUCCCCUGAAUAAGUCGUCCUACAA	0.834

Series 2 — target: CCNF, cyclin fold, Cln2 fusion (human); technique: yeast growth competition, sequencing; matrix: yeast; notes: strong parent motif; baseline: not given; reading: higher = stronger binding
Parent: WEE1 docking peptide (human); HKTFRKLRLFDTP; partner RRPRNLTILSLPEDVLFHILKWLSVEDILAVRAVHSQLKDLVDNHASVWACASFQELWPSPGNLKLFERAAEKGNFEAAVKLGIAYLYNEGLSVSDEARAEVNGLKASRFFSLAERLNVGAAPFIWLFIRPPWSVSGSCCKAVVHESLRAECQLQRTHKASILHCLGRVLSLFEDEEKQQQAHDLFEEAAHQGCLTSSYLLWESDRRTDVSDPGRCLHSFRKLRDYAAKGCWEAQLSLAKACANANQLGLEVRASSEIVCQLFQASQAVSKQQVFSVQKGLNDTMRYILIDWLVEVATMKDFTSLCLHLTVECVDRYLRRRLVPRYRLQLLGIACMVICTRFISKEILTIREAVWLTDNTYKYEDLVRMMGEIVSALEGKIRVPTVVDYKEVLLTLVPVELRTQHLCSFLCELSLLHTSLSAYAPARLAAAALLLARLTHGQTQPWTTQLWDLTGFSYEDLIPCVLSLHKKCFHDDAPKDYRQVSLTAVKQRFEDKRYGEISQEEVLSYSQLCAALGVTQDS
Variant	normalised enrichment score
HKTFNKLRLFDTP [R5N]	-4.78
HKTFRKLRLGDTP [F10G]	1.57
HKTFRMLRLFDTP [K6M]	1.5
HKTFRKLRLCDTP [F10C]	1.83
HKTFRKLRLNDTP [F10N]	1.14
HKTFRKLKLFDTP [R8K]	3.55
HKGFRKLRLFDTP [T3G]	3.19
HKTFRKLRLRDTP [F10R]	1.5
DKTFRKLRLFDTP [H1D]	1.97
HKTFRKFRLFDTP [L7F]	2.18
HKTFRKLRLFDIP [T12I]	2.66
HKTFRKLDLFDTP [R8D]	2.48
HKTFRKLALFDTP [R8A]	2.24
HKTFRKLRLFDTN [P13N]	2.6
HKTERKLRLFDTP [F4E]	1.49
HKTFRKLRHFDTP [L9H]	0.694
HKTFRKLRLFDTA [P13A]	2.44
HKQFRKLRLFDTP [T3Q]	1.73
HKTFRKMRLFDTP [L7M]	1.06
HKRFRKLRLFDTP [T3R]	1.65
HNTFRKLRLFDTP [K2N]	2.9
HKTFRKGRLFDTP [L7G]	2.1
HKTFRKLRLPDTP [F10P]	2.18
EKTFRKLRLFDTP [H1E]	1.8
HKTFRKLRLFDTC [P13C]	3.03

Series 3 — technique: RNA Bind-n-Seq; form: RNA; matrix: in vitro; tested at: 365 nM; baseline: no-protein control; reading: higher = stronger binding
Target: RNA binding protein fox-1 homolog 2, RRM domain, GST-SBP tag (RBFOX2, Homo sapiens, UniProt O43251-10, residues 100-194)
Notes: natural RNA segment, single round, ends assumed
Constant ends, left off below: GGGAGUUCUACAGUCCGACGAUC … UGGAAUUCUCGGGUGCCAA
Target sequence (chain): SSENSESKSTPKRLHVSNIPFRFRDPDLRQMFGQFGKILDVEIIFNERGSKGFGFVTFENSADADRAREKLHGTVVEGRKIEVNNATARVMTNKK
Sequence	RBNS enrichment (R)
UAUACACUCUUUGGUUCGUAUAGGCCAUAUUCCAACUGGCUUUUUAGUAAUAGAAAUCCAGUAUAUAAUGUAUCAAAUACAAUUGAGGUUCUAACCUAGUGUGUUAAUUU	0.368
ACACUCACCUGCUCCCUUUCGUUCCGCUUGUCUUGGCAGUUGACAAGACAUUCGUUUGCUUUAGUGAAACUCCCUCGCUCCAGCCUCUCUAAGUAGCUCUUCCCGCUGUG	0.783
CUCUCCGCUCUUUCCAGCAAAGCUGCUCAGAGAGGGUGUCCAGCACAGUGGAGAGGCCGGAAGUGAGACGGGCAGACGGCACCUGCAGCCUGAAACGCACCGCUCCUGCG	0.567
ACGCUGAUGGGGAAAUAGUUCUUUCUCCCCCCACAGCCCCUGCCACUCACUAGGCUCCCACUUGCCUCUUCUGUGAAAAACUUCAAGCCCUGGCCUCCCCACCACUGGGU	0.626
UGAUUUGAUUUCCUGCCCUGGUUUUGAAGGUCCAUUUUUUUCCCUUUUGCAUUGACUUGCUUGUUUCCCCUUUGAAACACCUAAAAAUACCUUUCCAAAACAUCGCGAGA	0.721
UGUGCUGAGGCAUGUUCCUGCCUACCAUCCUCCUCCCUCCCCGGCUCUCCUCCCAGCAUCACACCAGCCAUGCAGCCAGCAGGUCCUCCGGAUCACUGUGGUUGGGUGGA	0.711
GGCACUGUUGAGUGUCUGCUGGGGACCUGACUUUACCAGUUUCCUGAAUGGCGCCUCCCCACCUCAUUUCUGGAGUUGCAAUGGUCUCAACUCCCAUCUGAGGUGGGUAC	0.356
CCUUCUCAUGCUGCCGGCUCAUCUGGGCCCAUAGAGUGGGCUUUGCCAGUUGCUGUUGCACAGGAGGCGAGAACAGCACACUUCAACCCCAGCUUGCUGGUCGGCUUUCC	0.378
ACCGGCAACUGCAUGUACCUCCUCCCUUUCUCAUUUCCAAUGAUGUACCCUGUACACGUGUUCAUGCUGUGUCUGGCUCUCAUCUGCACAAUCGUGCAUAGAAUUGCCUC	0.743
UAGCUUGGGAUUUUUUUUUUUUUUAAUGUAGAAAAACCCUGUAGAACCAGUGCUUUGGCCACUUUCAUGCUAGCAGAGUGGACCUUGGUCCUCCCUGCUUAGAAAGCUAC	0.474
GUUGAUAGGUGUGGUGGACAGAGGCACAGUUGGCUUCAGGGUUCCUUCCCUGUUUUCUCCCCAGAAUUCUAAAACAAAGUUCAGUGGCGAGCAGCAUCUCUAGGCUCUGG	0.807
AUACACACACGCACAUACUCCUGCACAUGUUCCCAUGCAUGUGUGUGCACUCGGACCGAGCAUCUCCCACGCACCUCUACCCCACCCCAAGCACCUCUCUCCCCCCAUGC	2.83

Series 4 — technique: protein-binding microarray; form: double-stranded DNA, one strand shown; matrix: in vitro; tested at: 250 nM; notes: 60-bp whole probe; together with: salmon DNA 0.4 mg/ml; baseline: random background probes; reading: higher = stronger binding; constant ends, left off below: GCCTAGCAC … GTCTTGATTCGCTTGACGCTGCTG
Target: Interferon regulatory factor 7, full length, phosphomimetic (IRF7, Homo sapiens, UniProt Q92985, residues 1-503, S101K/S471D/S472D/S475D/S476D/S477D/S483D/S484D/S487D)
Chain of UniProt Q92985 (whole entry, unmodified, looked up): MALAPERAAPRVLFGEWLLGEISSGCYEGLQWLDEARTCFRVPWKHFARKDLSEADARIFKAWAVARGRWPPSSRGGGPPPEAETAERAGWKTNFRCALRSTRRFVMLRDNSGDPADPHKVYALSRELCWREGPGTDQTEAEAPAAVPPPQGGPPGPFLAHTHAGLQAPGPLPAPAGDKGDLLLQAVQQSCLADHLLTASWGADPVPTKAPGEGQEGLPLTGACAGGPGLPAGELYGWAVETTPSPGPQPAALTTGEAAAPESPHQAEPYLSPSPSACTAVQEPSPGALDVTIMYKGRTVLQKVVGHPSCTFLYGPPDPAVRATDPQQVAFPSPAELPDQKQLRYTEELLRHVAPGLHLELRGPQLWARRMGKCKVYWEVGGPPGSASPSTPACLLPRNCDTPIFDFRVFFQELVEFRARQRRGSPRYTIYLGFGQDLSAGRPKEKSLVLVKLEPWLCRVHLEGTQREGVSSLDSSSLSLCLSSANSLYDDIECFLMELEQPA
Sequence	log fluorescence [z-score]
TCACATATGTTTTTCATACTGTGCTAG	0.622
TTAGATTTCAGCTCCGATTAGTGCTAG	0.482
GACGGTTTCCTACTACTGACGTGCTAG	1.75
CTCCCCTTGCTTTCCAATTCGTGCTAG	0.588
CAAATACTCTTCCATGGAGAAGTGCTA	0.632
TCAGATATCAGTATCGATTAGTGCTAG	0.968
GACGGTATCCGGACTGGGGACGTGCTA	-0.344
TCAATTCCAGGGTTTTATACTGTGCTA	0.586
TGCTCCTTCTGACATCAACCCGTGCTA	0.292
TCAGGTTCTCTTTTATTACTGTGCTAG	1.98
TTAGGTTTAGACTTTCGGTTAGTGCTA	1.09
GACGTTATCGACTTTCGGGACGTGCTA	0.0322
GACGATCTCAGTCGCGAGACGTGCTAG	-0.0319
TTAGGACTGCGTCTCGGTTAGTGCTAG	0.0558
CTCAAGATTCCTCTCACCTCGTGCTAG	0.496
TTATATTTCAGTATCGATTAGTGCTAG	1.87
TTAGATATCCGGTATCGATTAGTGCTA	1.34
CTAGGTATCGGGTTTCGGTTAGTGCTA	7.75
CACGGTATCGGTTTCGGGACGTGCTAG	7.07
TTAGGTTTCGGTTTCGGTTCGTGCTAG	15.8
TATGGCTTCAAGTAACTACAGTGCTAG	-0.445
GACGATTTCAGTTTCTAGACGTGCTAG	1.93
GACTGACTGGGGACTGGGGACGTGCTA	-0.375
GACGGTTTCGGGTATCGTGACGTGCTA	6.89
TTAGGTATCCTTTTCCATTAGTGCTAG	1.74

A few entries again (series 4):
Sequence	log fluorescence [z-score]
GACGGTATCCGGACTGGGGACGTGCTA	-0.344
GACGATCTCAGTCGCGAGACGTGCTAG	-0.0319
CACGGTATCGGTTTCGGGACGTGCTAG	7.07
TTAGGTTTCGGTTTCGGTTCGTGCTAG	15.8
